Assay results collected from several papers.
Lines come from different studies, so protocols differ. Numbers after ± are the reported error.
MDM2 N-terminal domain 17-125: E3 ubiquitin-protein ligase Mdm2, N-terminal domain 17-125 (MDM2, Homo sapiens, UniProt Q00987)
MDM2 L33E L33E; with p53: E3 ubiquitin-protein ligase Mdm2, L33E; with p53 (MDM2, Homo sapiens, UniProt Q00987, L33E)
MDM2: E3 ubiquitin-protein ligase Mdm2 (MDM2, Homo sapiens, UniProt Q00987)
MDM2 residues 25-109: E3 ubiquitin-protein ligase Mdm2, residues 25-109 (MDM2, Homo sapiens, UniProt Q00987)

CC(=O)N(CC(=O)N(C)[C@@H](C)C(=O)N(Cc1c[nH]c2cc(Cl)ccc12)[C@@H](C)C(=O)N(C)[C@@H](C)C(=O)N(CCC(C)(C)C)[C@@H](C)C(=O)N1CCNCC1)Cc1ccccc1 — Kd (MDM2 N-terminal domain 17-125; binding, SPR kinetic fit; PBS with Tween; 10 °C, immobilised peptoid): 418 nM
CC(C)C[C@@H](C(N)=O)N1CCN(C(=O)[C@H](Cc2c[nH]c3ccccc23)N2CCN[C@@H](CCCCN)C2=O)[C@@H](Cc2ccccc2)C1=O — Kd (E3 ubiquitin-protein ligase Mdm2, N-terminal domain (MDM2, Homo sapiens, UniProt Q00987); binding, competitive fluorescence polarization; with: fluorescein-p53 peptide probe): ≥ 200000 nM
CC(=O)N(Cc1ccccc1)[C@@H](C)C(=O)N(C)CC(=O)N(Cc1c[nH]c2cc(Cl)ccc12)[C@@H](C)C(=O)N(C)CC(=O)N(CCC(C)(C)C)[C@@H](C)C(=O)N1CCNCC1 — Kd (MDM2 N-terminal domain 17-125; binding, SPR steady-state affinity; PBS with Tween; 10 °C, immobilised peptoid): 1400 nM
Cc1cccc(-n2c(-c3ccccc3O)nc3ccccc3c2=O)c1 — IC50 (E3 ubiquitin-protein ligase Mdm2, with p53 (MDM2, Homo sapiens, UniProt Q00987); inhibitor): 420 ± 36 nM
CC(C)Oc1cc(NC(=O)[C@@H](Cc2ccccc2)NC(=O)c2ccc(N)c(OCc3ccccc3)c2)ccc1C(=O)NCC(=O)O — IC50 (MDM2 L33E L33E; with p53; fluorescence anisotropy competition; pH 7.5): 9200 ± 400 nM
CC(=O)N[C@@H](CCCCN)C(=O)N[C@@H](CCCCN)C(=O)N[C@@H](CCCCN)C(=O)NCCCCCC(=O)N[C@H](C(=O)N[C@@H](CO)C(=O)N[C@@H](Cc1ccccc1)C(=O)N[C@]1(C)CCCCCCCCCCC[C@@](C)(C(=O)N[C@@H](CCC(=O)O)C(=O)N[C@@H](CC(N)=O)C(=O)N[C@@H](Cc2ccccc2)C(N)=O)NC(=O)[C@H](CC(C)C)NC(=O)[C@H](CC(C)C)NC(=O)[C@H](C)NC(=O)[C@H](Cc2c[nH]c3ccccc23)NC(=O)[C@H](Cc2ccc(O)cc2)NC(=O)[C@H](CCC(=O)O)NC1=O)[C@@H](C)O — Kd (MDM2; cell-free assay, FP; pH 7.4): 227 nM
CCOC(=O)[C@@H]1Cc2c(cc([N+](=O)[O-])cc2[N+](=O)[O-])[C@@H](O)[C@@]12C(=O)Nc1ccc(Cl)cc12 (single isomer, unassigned) — IC50 (MDM2): 1500 ± 200 nM
CSCC[C@@H]1NC(=O)[C@H](C)NC(=O)[C@H](CC(C)C)NC(=O)[C@@H]2CSSC[C@@H](C(=O)O)NC(=O)[C@H](CCCCN)NC(=O)[C@@H]3CSSC[C@H](NC(=O)[C@H](CC(=O)O)NC(=O)[C@H](Cc4ccccc4)NC(=O)[C@H](CO)NC(=O)[C@H](Cc4ccc(O)cc4)NC(=O)[C@@H](N)CSSC[C@H](NC(=O)[C@H](CCCCN)NC(=O)CNC(=O)[C@H](CCCNC(=N)N)NC(=O)[C@H](CCCNC(=N)N)NC(=O)[C@H](Cc4ccccc4)NC(=O)CNC1=O)C(=O)N[C@@H](CCCNC(=N)N)C(=O)N[C@@H](CCCNC(=N)N)C(=O)N[C@@H](CCCNC(=N)N)C(=O)N[C@@H](CCCCN)C(=O)N3)C(=O)N[C@@H](CC(C)C)C(=O)N[C@@H](Cc1c[nH]c3ccccc13)C(=O)N[C@@H](CCCCN)C(=O)N2 — Kd (MDM2 residues 25-109; binding, surface plasmon resonance; pH 7.4, 25 °C): 493 nM
CC(C)Oc1cc(C(=O)NCC(=O)O)ccc1NC(=O)[C@H](Cc1ccccc1)NC(=O)c1ccc(N)c(OCc2ccccc2)c1 — IC50 (MDM2 L33E L33E; with p53; fluorescence anisotropy competition; pH 7.5): 21200 ± 2500 nM
CC(=O)N(Cc1ccccc1)[C@@H](C)C(=O)N(C)[C@@H](C)C(=O)N(Cc1c[nH]c2cc(Cl)ccc12)[C@@H](C)C(=O)N(C)[C@@H](C)C(=O)N(CCC(C)(C)C)[C@@H](C)C(=O)N1CCNCC1 — Kd (MDM2 N-terminal domain 17-125; binding, SPR steady-state affinity; PBS with Tween; 10 °C, immobilised peptoid): 9.6 nM
CC(C)Oc1cc(NC(=O)[C@@H](Cc2c[nH]c3ccccc23)NC(=O)c2ccc(N)c(OCc3ccccc3)c2)ccc1C(=O)NCC(=O)O — IC50 (MDM2 L33E L33E; with p53; fluorescence anisotropy competition; pH 7.5): 25200 ± 1400 nM
CC(C)C[C@H](NC(=O)[C@H](CCC(N)=O)NC(=O)[C@@H]1CSSC[C@@H]2NC(=O)[C@H](CC(N)=O)NC(=O)[C@@H](N)CSSC[C@H](NC(=O)[C@H](Cc3ccccc3)NC(=O)[C@H](C)NC(=O)[C@H]([C@@H](C)O)NC(=O)[C@H](CCC(=O)O)NC(=O)[C@@H]3CCCN3C(=O)[C@H](C)NC(=O)[C@H](CCCCN)NC2=O)C(=O)N[C@@H](C)C(=O)N[C@@H](Cc2ccc(O)cc2)C(=O)N[C@@H](Cc2c[nH]c3ccccc23)C(=O)N1)C(N)=O — Kd (MDM2 residues 25-109; SPR competition; with: immobilised p53 peptide): 17.7 ± 4 nM

A few entries again:
CC(C)C[C@@H](C(N)=O)N1CCN(C(=O)[C@H](Cc2c[nH]c3ccccc23)N2CCN[C@@H](CCCCN)C2=O)[C@@H](Cc2ccccc2)C1=O — Kd (E3 ubiquitin-protein ligase Mdm2, N-terminal domain (MDM2, Homo sapiens, UniProt Q00987); binding, competitive fluorescence polarization; with: fluorescein-p53 peptide probe): ≥ 200000 nM
CSCC[C@@H]1NC(=O)[C@H](C)NC(=O)[C@H](CC(C)C)NC(=O)[C@@H]2CSSC[C@@H](C(=O)O)NC(=O)[C@H](CCCCN)NC(=O)[C@@H]3CSSC[C@H](NC(=O)[C@H](CC(=O)O)NC(=O)[C@H](Cc4ccccc4)NC(=O)[C@H](CO)NC(=O)[C@H](Cc4ccc(O)cc4)NC(=O)[C@@H](N)CSSC[C@H](NC(=O)[C@H](CCCCN)NC(=O)CNC(=O)[C@H](CCCNC(=N)N)NC(=O)[C@H](CCCNC(=N)N)NC(=O)[C@H](Cc4ccccc4)NC(=O)CNC1=O)C(=O)N[C@@H](CCCNC(=N)N)C(=O)N[C@@H](CCCNC(=N)N)C(=O)N[C@@H](CCCNC(=N)N)C(=O)N[C@@H](CCCCN)C(=O)N3)C(=O)N[C@@H](CC(C)C)C(=O)N[C@@H](Cc1c[nH]c3ccccc13)C(=O)N[C@@H](CCCCN)C(=O)N2 — Kd (MDM2 residues 25-109; binding, surface plasmon resonance; pH 7.4, 25 °C): 493 nM
